{"data": "Experimental data of several laboratories", "NNMT SAM-bound": "Nicotinamide N-methyltransferase, SAM-bound (NNMT, Homo sapiens, UniProt P40261)", "note": "Each line is one published result; not all experiments were run side by side. ± marks the error that the study gave.", "chain of UniProt P40261 (whole entry, looked up)": "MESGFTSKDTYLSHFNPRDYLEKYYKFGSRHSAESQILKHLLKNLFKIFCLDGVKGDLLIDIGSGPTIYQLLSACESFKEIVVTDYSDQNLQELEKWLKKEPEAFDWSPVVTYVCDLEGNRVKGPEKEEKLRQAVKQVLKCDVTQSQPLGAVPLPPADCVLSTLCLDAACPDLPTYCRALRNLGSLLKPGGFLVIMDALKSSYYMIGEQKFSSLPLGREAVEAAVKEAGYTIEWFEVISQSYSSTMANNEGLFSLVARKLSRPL", "chain of UniProt P23458 (whole entry, looked up)": "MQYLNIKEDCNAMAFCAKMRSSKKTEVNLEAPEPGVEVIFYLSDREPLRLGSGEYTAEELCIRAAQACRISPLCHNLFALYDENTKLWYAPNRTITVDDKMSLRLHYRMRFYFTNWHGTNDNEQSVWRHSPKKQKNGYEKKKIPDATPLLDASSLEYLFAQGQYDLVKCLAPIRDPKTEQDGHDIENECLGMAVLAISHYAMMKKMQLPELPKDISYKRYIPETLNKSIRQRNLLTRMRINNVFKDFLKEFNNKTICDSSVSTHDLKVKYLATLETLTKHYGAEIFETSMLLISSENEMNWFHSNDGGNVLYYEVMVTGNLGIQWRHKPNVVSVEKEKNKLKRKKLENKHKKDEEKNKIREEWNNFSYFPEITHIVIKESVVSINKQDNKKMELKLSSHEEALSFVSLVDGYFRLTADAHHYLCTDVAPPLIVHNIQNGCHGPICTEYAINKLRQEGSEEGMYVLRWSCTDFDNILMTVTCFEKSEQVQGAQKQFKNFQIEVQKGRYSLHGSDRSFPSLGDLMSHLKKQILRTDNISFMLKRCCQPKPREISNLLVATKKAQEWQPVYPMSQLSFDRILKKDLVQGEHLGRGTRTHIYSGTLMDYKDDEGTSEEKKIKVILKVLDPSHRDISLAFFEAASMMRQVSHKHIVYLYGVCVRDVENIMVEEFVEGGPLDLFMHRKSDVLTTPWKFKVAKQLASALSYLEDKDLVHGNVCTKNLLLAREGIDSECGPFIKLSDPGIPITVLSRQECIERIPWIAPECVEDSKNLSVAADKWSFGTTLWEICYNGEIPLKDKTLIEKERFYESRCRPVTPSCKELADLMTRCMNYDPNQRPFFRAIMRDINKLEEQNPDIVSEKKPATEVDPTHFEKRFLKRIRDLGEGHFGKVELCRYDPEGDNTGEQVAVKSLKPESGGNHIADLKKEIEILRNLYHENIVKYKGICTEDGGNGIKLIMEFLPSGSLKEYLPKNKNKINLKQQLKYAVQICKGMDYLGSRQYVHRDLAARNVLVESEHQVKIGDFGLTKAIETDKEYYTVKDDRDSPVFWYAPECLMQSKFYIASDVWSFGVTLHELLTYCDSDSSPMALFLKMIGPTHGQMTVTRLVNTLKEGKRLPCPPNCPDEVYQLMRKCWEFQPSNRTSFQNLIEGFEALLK", "chain of UniProt P63096 (whole entry, looked up)": "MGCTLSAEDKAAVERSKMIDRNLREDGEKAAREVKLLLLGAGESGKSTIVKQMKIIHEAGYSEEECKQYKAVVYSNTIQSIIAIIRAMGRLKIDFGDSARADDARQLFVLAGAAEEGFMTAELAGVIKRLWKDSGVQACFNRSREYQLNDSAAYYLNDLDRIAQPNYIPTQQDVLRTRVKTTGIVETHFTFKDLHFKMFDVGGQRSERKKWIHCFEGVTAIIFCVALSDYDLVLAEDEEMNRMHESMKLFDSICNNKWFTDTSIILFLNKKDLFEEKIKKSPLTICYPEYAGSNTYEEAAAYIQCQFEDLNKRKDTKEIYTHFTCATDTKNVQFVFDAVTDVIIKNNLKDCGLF", "chain of UniProt P08191 (whole entry, looked up)": "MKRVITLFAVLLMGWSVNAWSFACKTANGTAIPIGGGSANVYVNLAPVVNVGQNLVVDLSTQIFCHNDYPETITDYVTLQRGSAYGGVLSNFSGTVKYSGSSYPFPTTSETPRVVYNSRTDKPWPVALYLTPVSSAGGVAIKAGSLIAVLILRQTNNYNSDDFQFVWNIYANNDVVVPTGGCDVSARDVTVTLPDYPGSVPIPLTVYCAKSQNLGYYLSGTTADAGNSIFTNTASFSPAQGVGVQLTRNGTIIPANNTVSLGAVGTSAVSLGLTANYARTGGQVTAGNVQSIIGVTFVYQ", "chain of UniProt P46937 (whole entry, looked up)": "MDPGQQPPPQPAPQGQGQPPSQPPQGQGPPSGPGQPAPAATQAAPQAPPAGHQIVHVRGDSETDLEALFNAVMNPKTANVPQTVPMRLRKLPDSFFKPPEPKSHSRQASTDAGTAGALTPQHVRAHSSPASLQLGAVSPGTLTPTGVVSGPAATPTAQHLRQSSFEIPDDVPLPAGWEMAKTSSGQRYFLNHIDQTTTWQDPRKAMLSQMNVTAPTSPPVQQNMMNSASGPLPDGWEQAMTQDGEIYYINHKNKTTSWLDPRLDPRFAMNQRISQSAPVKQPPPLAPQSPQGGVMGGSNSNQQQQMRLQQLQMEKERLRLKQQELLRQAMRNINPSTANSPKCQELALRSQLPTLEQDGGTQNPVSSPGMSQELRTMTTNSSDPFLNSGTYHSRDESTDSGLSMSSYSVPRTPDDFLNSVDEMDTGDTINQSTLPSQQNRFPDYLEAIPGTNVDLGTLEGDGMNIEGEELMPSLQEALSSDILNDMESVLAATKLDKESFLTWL", "chain of UniProt O95696 (whole entry, looked up)": "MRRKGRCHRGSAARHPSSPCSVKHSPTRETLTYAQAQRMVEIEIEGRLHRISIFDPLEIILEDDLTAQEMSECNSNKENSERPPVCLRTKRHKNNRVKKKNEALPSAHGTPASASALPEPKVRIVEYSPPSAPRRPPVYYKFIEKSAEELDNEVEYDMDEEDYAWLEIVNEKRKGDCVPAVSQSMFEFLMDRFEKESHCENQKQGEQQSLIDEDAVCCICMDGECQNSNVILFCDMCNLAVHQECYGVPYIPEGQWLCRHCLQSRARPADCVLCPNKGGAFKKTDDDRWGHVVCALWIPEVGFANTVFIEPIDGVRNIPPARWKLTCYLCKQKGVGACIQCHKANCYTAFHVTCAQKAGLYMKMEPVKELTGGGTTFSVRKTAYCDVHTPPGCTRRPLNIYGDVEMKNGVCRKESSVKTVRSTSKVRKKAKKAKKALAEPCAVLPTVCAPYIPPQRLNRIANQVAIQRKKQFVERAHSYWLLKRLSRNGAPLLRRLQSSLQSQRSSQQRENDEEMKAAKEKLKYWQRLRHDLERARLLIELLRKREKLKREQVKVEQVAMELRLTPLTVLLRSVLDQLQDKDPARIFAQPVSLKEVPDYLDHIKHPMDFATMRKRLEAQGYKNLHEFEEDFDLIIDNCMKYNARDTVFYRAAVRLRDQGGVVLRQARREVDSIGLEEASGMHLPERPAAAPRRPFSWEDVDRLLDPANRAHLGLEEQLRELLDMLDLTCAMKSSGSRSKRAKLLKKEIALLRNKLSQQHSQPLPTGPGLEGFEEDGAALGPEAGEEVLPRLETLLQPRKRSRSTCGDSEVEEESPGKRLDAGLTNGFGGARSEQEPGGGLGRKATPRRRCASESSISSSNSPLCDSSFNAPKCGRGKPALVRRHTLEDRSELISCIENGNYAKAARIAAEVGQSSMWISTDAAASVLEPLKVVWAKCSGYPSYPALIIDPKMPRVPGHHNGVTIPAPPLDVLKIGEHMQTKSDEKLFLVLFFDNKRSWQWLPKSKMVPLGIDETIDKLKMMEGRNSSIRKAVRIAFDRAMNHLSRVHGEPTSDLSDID", "chain of UniProt Q68D91 (whole entry, looked up)": "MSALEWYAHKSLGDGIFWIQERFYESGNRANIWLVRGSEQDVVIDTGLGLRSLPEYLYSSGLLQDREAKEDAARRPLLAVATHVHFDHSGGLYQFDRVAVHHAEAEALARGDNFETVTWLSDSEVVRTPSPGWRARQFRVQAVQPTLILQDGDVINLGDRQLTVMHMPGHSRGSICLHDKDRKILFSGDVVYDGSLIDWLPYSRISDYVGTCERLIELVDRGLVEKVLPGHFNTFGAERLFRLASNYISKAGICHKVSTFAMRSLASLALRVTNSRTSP", "chain of UniProt O14733 (whole entry, looked up)": "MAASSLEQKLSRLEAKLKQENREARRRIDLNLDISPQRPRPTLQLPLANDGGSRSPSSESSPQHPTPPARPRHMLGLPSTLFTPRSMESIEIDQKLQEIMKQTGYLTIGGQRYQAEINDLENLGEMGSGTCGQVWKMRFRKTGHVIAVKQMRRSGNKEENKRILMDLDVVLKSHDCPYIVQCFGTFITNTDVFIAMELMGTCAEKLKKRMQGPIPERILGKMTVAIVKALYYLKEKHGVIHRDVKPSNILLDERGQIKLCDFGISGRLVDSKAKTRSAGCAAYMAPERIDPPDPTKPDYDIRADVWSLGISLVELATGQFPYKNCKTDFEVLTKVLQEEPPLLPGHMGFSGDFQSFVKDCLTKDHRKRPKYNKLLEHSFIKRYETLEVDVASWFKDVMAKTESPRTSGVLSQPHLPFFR"}
{"Structure (SMILES)": "CC[C@H](C)[C@@H]1NC(=O)[C@H](Cc2c[nH]c3ccccc23)NC(=O)[C@@H]2CCCN2C(=O)[C@H](C)NC(=O)[C@H](C(C)C)NC(=O)[C@H](CCC(N)=O)NC(=O)[C@H](Cc2ccccc2)NC(=O)[C@H](Cc2c[nH]cn2)NC(=O)[C@H]([C@@H](C)O)NC(=O)[C@H](Cc2ccc(O)cc2)NC(=O)CSC[C@@H](C(N)=O)NC(=O)[C@H](CC(C)C)NC(=O)[C@H](CO)NC(=O)[C@H](CCC(N)=O)NC1=O", "target": "Huntingtin, residues 97-2069 (HTT, Homo sapiens, UniProt P42858)", "test": "binding, fluorescence polarization", "conditions": "N-terminal domain", "Kd [nM]": 73}
{"Structure (SMILES)": "CC(C)[C@H]1NC(=O)[C@@H](CCCCN)NC(=O)[C@@H](C)NC(=O)[C@@H](CCCCN)NC(=O)c2cc3cc(c2)C(=O)NC[C@@H](C(=O)N[C@@H](CCCCN)C(N)=O)NC(=O)[C@H](Cc2ccc(O)cc2)NC(=O)[C@@H]([C@H](C)O)NC(=O)[C@H](C)NC(=O)[C@H](Cc2ccc(F)cc2)NC(=O)[C@H](CCCCNC3=O)NC1=O", "target": "Guanine nucleotide-binding protein G(i) subunit alpha-1 (GNAI1, Homo sapiens, UniProt P63096)", "test": "binding, SPR", "conditions": "pH 7.4", "Kd [nM]": 9080}
{"Structure (SMILES)": "Cc1c[nH]c2nccc(-c3ccc(C(=O)N[C@@H]4c5c(F)cc(C(F)F)cc5C[C@@H]4O)cn3)c12", "target": "Tyrosine-protein kinase JAK1, JH1 (JAK1, Homo sapiens, UniProt P23458)", "test": "binding, competition with immobilised ligand", "Kd [nM]": 675}
{"Structure (SMILES)": "C=CC(=O)N1CCCN(C(=O)c2cc(Sc3cnc(NC(=O)C4CC4)s3)c(C)cc2OC)C[C@H]1C", "target": "Dual specificity mitogen-activated protein kinase kinase 7 (MAP2K7, Homo sapiens, UniProt O14733)", "test": "binding, competition with immobilised ligand", "Kd [nM]": "> 10000"}
{"Structure (SMILES)": "COc1ccc(Cn2ccc3ccc(C(=O)NO)cc32)cc1", "target": "MBLAC2 (Homo sapiens, UniProt Q68D91)", "test": "inhibitor, competition pulldown", "system": "SW620 and MV4-11 lysate", "conditions": "1 h", "Kd [nM]": "> 30200"}
{"Structure (SMILES)": "COc1cccc2c(=O)c(CO)coc12", "target": "NNMT SAM-bound", "test": "SPR/GCI", "conditions": "together with: SAM", "Kd [nM]": 3160}
{"Structure (SMILES)": "O=C(O)CN(CCOCCOCCN(CC(=O)O)CC(=O)O)CC(=O)O", "target": "calcium ion", "test": "isothermal titration calorimetry", "Kd [nM]": "< 100"}
{"Structure (SMILES)": "NCCCC[C@H](NC(=O)[C@H](C/C=C\\C[C@H](NC(=O)[C@@H]1CCCN1)C(=O)N[C@@H](CCCCN)C(=O)NCCCN)NC(=O)[C@@H]1CCCN1)C(=O)NCCCN", "target": "HIV-1 frameshift site RNA", "test": "SPR", "Kd [nM]": 117}
{"Structure (SMILES)": "CCCC[C@@H]1NC(=O)[C@H](Cc2ccc(O)cc2)NC(=O)[C@@H]2CCCN2C(=O)[C@H](CC(=O)O)NC(=O)[C@H](C)NC(=O)[C@H](Cc2ccccc2)NC(=O)[C@@H]2CSCCC(=O)N3CN(CN(C3)C(=O)CCSC[C@@H](C(=O)N[C@@H](C)C(N)=O)NC1=O)C(=O)CCSC[C@H](NC(=O)[C@H](C)NC(C)=O)C(=O)N[C@@H](CC(C)(C)C)C(=O)N1CCC[C@H]1C(=O)N[C@@H](CCC(=O)O)C(=O)N[C@H](C)C(=O)N1CCC[C@H]1C(=O)N[C@@H](Cc1ccc(O)cc1)C(=O)N2", "target": "Tumor necrosis factor receptor superfamily member 9 (Homo sapiens, UniProt Q07011)", "test": "binding, SPR", "Kd [nM]": 4.4}
{"Structure (SMILES)": "C=CC(=O)N1CC2(CCN(c3nc(OC4CCN(CCCOC)CC4)nc4c(OCC(F)(F)F)c(-c5c(C)ccc6[nH]ncc56)c(C5CC5)cc34)CC2)C1", "target": "GTPase KRas, GDP-bound (KRAS, Homo sapiens, UniProt P01116, Q61H)", "test": "binding, surface plasmon resonance", "Kd [nM]": "896 ± 34"}
{"Structure (SMILES)": "CC(=O)N[C@H]1[C@@H](OC(=O)NCCCOCCCCOCCCNC(=O)O[C@H]2O[C@H](CO)[C@@H](O)[C@H](O)[C@H]2NC(C)=O)O[C@H](CO)[C@@H](O)[C@@H]1O", "target": "wheat germ agglutinin", "test": "ITC", "conditions": "pH 7.0, 298 K", "Kd [nM]": "128 ± 6"}
{"Structure (SMILES)": "CCc1nc2cc3ccccc3cc2cc1C(=O)N[C@@H](CCCCN)C(=O)N[C@@H](C/C=C/C[C@H](NC(=O)[C@H](CCCCN)NC(=O)c1cc2cc3ccccc3cc2nc1CC)C(=O)N1CCC[C@H]1C(=O)NCCCN)C(=O)N1CCC[C@H]1C(=O)NCCCN", "target": "HIV-1 frameshift site RNA", "test": "SPR", "Kd [nM]": 80.4}
{"Structure (SMILES)": "CCC1C=CC2CCN(C(=O)C3CCC4C=CC5(CCCN5C(=O)C(Cc5ccccc5Cl)NC(C)=O)C(=O)N43)C2C(=O)N1CC(=O)OC (stereo not shown)", "target": "Transcriptional coactivator YAP1 (YAP1, Homo sapiens, UniProt P46937)", "test": "binding, NMR", "Kd [nM]": 460000}
{"Structure (SMILES)": "CC(=O)N1c2ccc(-c3ccc(CNC(=O)c4cn5cc(-c6cnc(N)nc6)nc(N6CCOCC6)c5n4)cc3)cc2CC[C@@H]1C", "target": "Bromodomain-containing protein 1, bromodomain (BRD1, Homo sapiens, UniProt O95696)", "test": "binding, competition with immobilised ligand", "Kd [nM]": "> 100000"}
{"Structure (SMILES)": "CCc1nc2cc3ccccc3cc2cc1C(=O)N1CCC[C@H]1C(=O)N[C@@H](C/C=C\\C[C@H](NC(=O)[C@@H]1CCCN1C(=O)c1cc2cc3ccccc3cc2nc1CC)C(=O)N[C@@H](CCCCN)C(=O)NCCCN)C(=O)N[C@@H](CCCCN)C(=O)NCCCN", "target": "HIV-1 frameshift site RNA", "test": "SPR", "Kd [nM]": 1140}
{"Structure (SMILES)": "CNc1cc(Cl)c(C(N)=O)cn1", "target": "NNMT SAM-bound", "test": "substrate, SPR", "conditions": "20 °C, together with: SAM", "Kd [nM]": 20000}
{"Structure (SMILES)": "CC(O)CN1CC(=O)C(c2nc(-c3ccc(Cl)cc3)cs2)=C1N (stereo not shown)", "target": "Hepatitis A virus cellular receptor 2 (Homo sapiens, UniProt Q8TDQ0)", "test": "microscale thermophoresis", "Kd [nM]": 510}
{"Structure (SMILES)": "COc1cc(CF)c(C(N)=O)cn1", "target": "NNMT SAM-bound", "test": "substrate, SPR", "conditions": "20 °C, together with: SAM", "Kd [nM]": 794}
{"Structure (SMILES)": "CCCCCCCO[C@H]1O[C@H](CO)[C@@H](O)[C@H](O)[C@@H]1O", "target": "Type 1 fimbrin D-mannose specific adhesin, lectin domain (fimH, Escherichia coli K-12, UniProt P08191)", "test": "binding, isothermal titration calorimetry", "conditions": "15 °C, individual titrations", "Kd [nM]": 21.6}
